Measured values collected from several papers.
“And” joins repeats or separate records; there may be more than shown. Numbers after ± are the reported error.

SMILES | test | system | conditions | scale | quantity | result
N#Cc1ccc2c(c1)[C@H]1CCCN(C(=O)c3ccc4[nH]cnc4c3)[C@H]1C2 |  | human clinical trial | oral, 240 mg once daily, 28 d | baseline: placebo | body weight change from baseline | -1.02 kg
Cn1cc(Nc2nccc(-c3ccc4c(c3)CN(C3COC3)CC[C@H]4NC(=O)c3cn(C(C)(C)C)nn3)n2)cn1 | refers to: TSP1 angiogenesis inhibition | splenic B cells, mice | 30 mg/kg, IgD-activated in vivo | baseline: vehicle, direction not given | pathway activation z-score | 0.447
CSCCNc1nc(SCCC(F)(F)F)nc2c1ncn2[C@@H]1O[C@H](COP(=O)(O)OP(=O)(O)C(Cl)(Cl)P(=O)(O)O)[C@@H](O)[C@H]1O | platelet aggregation, light transmission aggregometry | human patients, platelet-rich plasma | dose not given, 2 h, with: TRAP 15 µM |  | patients with IPA above 90% | 0%
C[C@@H](O)CCOC(=O)C[C@@H](C)O | refers to: C16-OH/C14-DC acylcarnitine | human, plasma | 60 min, log2-transformed values |  | metabolite level | -6.91 ± 0.41 µmol/L
O=C(O)CNC(=O)Cc1ccccc1 |  | ventricular cardiomyocytes, C57BL/6 mouse | dose not given, 0.108 s |  | sarcomere length | 1.72 µm
Cc1noc(C)c1-c1cc(C(O)(c2ccccn2)c2ccccn2)c2nc(C3CC3)[nH]c2c1 | refers to: HEXIM1 expression | human patients | dose not given, day 1, 24 h |  | maximum induction | 24.7%
OC(CCN1CCCCC1)(c1ccccc1)C1CC2C=CC1C2 (stereo not drawn) | resting-state EEG | healthy elderly humans | oral, 4 mg, eyes closed, LS mean |  | EEG power, alpha, Fz-Cz | 6.7 µV²
Cn1nnc2c(C(N)=O)ncn2c1=O |  | mouse subcutaneous GBM PDX sample E | subcutaneous, dose not given |  | T/C ratio | -7%
NC/C(=C\F)COc1cccc(Cn2c(=S)[nH]c(=O)c3[nH]cnc32)c1 |  | mouse, unilateral ureteral obstruction, left kidney (obstructed) | dose not given |  | fibrosis area | 7.81% and 5.77% and 8.55% and 3.25% and 7.64% and 5.55%
Cn1cc([C@H]2C[C@H]3CSC(N)=N[C@@]3(c3ccc(F)cc3F)CO2)cn1 | refers to: Aβx-42 | Mus musculus wild-type, brain | subcutaneous, 3 mg/kg, 1 h |  | Aβ42 level | 0.56 ng/g
COc1ccc(-c2cncc(N[C@@H](C)c3cccc(NC(=O)c4cncc(C)c4)c3)n2)cc1OC | refers to: rno-miR-410-3p | rat SU5416/hypoxia model, lung | dose not given, unit not given | baseline: SU5416/hypoxia vehicle | delta delta Ct | -1.81
CCN(Cc1nc2c(N)nc3cc(-c4cc[nH]n4)ccc3c2[nH]1)C(C)=O | immunohistochemistry, refers to: TAMs | human, injected tumour lesions | 2000 µg | baseline: baseline | fold change | 1.7
O=C1N(Cc2ccccc2Cl)c2ccccc2C12NN=C(c1ccccc1)S2 (stereo not drawn) |  | MDA-MB-468 xenograft, mouse | intravenous, 1296 mg/kg twice daily, subcutaneous xenograft | baseline: vehicle | T/C | 77%
C[C@H]1C[C@H]2CSC(N)=N[C@@]2(c2nc(NC(=O)c3ccc(OC(F)F)cn3)cs2)CO1 | refers to: Aβx-40 | healthy adults, plasma | 160 mg single dose, 48 h post-dose | baseline: placebo | percent change from baseline | -56.5%
CC(C)C[C@@H](NC(=O)[C@H](C)NC(=O)CNC(=O)[C@@H](NC=O)C(C)C)C(=O)N[C@@H](C)C(=O)N[C@@H](C(=O)N[C@H](C(=O)N[C@@H](C(=O)N[C@@H](Cc1c[nH]c2ccccc12)C(=O)N[C@H](CC(C)C)C(=O)N[C@@H](Cc1ccc2[nH]ccc2c1)C(=O)N[C@H](CC(C)C)C(=O)N[C@@H](Cc1c[nH]c2ccccc12)C(=O)N[C@H](CC(C)C)C(=O)N[C@@H](Cc1c[nH]c2ccccc12)C(=O)NCCO)C(C)C)C(C)C)C(C)C | H+/Na+ transport, pyranine pH-gradient | EYPC/EYPG LUVs 19:1 |  |  | EC50 | 4.11 ± 0.75 nM
Cc1c(C)n(Cc2cccc(OC(C)(C)C(=O)O)c2)c2ccc(C(=O)N[C@@H](C)c3ccc(C(C)(C)C)cc3)cc12 |  | C57BL/6 mice, diet-induced obese, L4 vertebra | dose not given |  | marrow fat volume/total volume | 0%
O[C@H]1CCCN[C@@H]1CCCn1cnc2c(Cl)c(Cl)ccc21 | ELISA, refers to: Pro-C3 | healthy human volunteers, serum | intraduodenal, 100 mg twice daily, day 14, multiple ascending dose |  | AUC(0-tau) | 107 ng·h/mL
N#Cc1ccn2c(-c3ccncc3)c(-c3ccc(F)cc3)nc2c1 | kinase binding, competitor, MIB/MS competition, refers to: PBS2 | Candida albicans cell lysate | 10 µM | baseline: DMSO | log2 fold change | -0.334

A few entries again:
SMILES | test | system | conditions | scale | quantity | result
C[C@H]1C[C@H]2CSC(N)=N[C@@]2(c2nc(NC(=O)c3ccc(OC(F)F)cn3)cs2)CO1 | refers to: Aβx-40 | healthy adults, plasma | 160 mg single dose, 48 h post-dose | baseline: placebo | percent change from baseline | -56.5%
C[C@@H](O)CCOC(=O)C[C@@H](C)O | refers to: C16-OH/C14-DC acylcarnitine | human, plasma | 60 min, log2-transformed values |  | metabolite level | -6.91 ± 0.41 µmol/L
Cc1noc(C)c1-c1cc(C(O)(c2ccccn2)c2ccccn2)c2nc(C3CC3)[nH]c2c1 | refers to: HEXIM1 expression | human patients | dose not given, day 1, 24 h |  | maximum induction | 24.7%
